Assay results gathered from unrelated publications.
Each line is one published result; not all experiments were run side by side.
Method: steady-state kinetics
B1: enzyme (Levilactobacillus brevis, UniProt Q03Q85); chain MKVTVVGCTHAGTFAIKQILAEHPDAEVTVYERNDVISFLSCGIALYLGGKVADPQGLFYSSPEELQKLGANVQMNHNVLAIDPDQKTVTVEDLTNHAQTTESYDKLVMTSGSWPIVPKIPGIDSDRVKLCKNWAHAQALIEDAKEAKRITVIGAGYIGAELAEAYSTTGHDVTLIDAMARVMPKYFDADFTDVIEQDYRDHGVQLALGETVESFTDSATGLTIKTDKNSYETDLAILCIGFRPNTDLLKGKVDMAPNGAIITDDYMRSSNPDIFAAGDSAAVHYNPTHQNAYIPLATNAVRQGILVGKNLVKPTVKYMGTQSSSGLALYDRTIVSTGLTLAAAKQQGLNAEQVIVEDNYRPEFMPSTEPVLMSLVFDPDTHRILGGALMSKYDVSQSANTLSVCIQNENTIDDLAMVDMLFQPNFDRPFNYLNILAQAAQAKVAQSVNA
B2: enzyme (Halalkalibacterium halodurans, UniProt Q9KCN8); chain MLNVTQLQEATTFIQQQIETKPTIGLILGSGLGILADEIEQPVKVPYSDIPHFPVSTVQGHAGQLVIGMLEGKQVIAMQGRFHFYEGYSLEVVTFPVRVMKALGVEQIIVTNAAGGVNESFEAGDLMIIRDHINNMAQNPLIGPNDEAFGVRFPDMSNAYSERLRTLAKEKGNTLNLKLQEGVYVANTGPVYETPAEVRMIRKLGGDAVGMSTVPEVIVARHAGLEVLGISCISNMAAGILPQPLSHDEVIETTERVRQDFLNLVKAIVKDM
B3: FMO3 E158K/E308G (Homo sapiens, UniProt P31513); chain GKKVAIIGAGVSGLASIRSCLEEGLEPTCFEKSNDIGGLWKFSDHAEEGRASIYKSVFSNSSKEMMCFPDFPFPDDFPNFMHNSKIQEYIIAFAKEKNLLKYIQFKTFVSSVNKHPDFATTGQWDVTTERDGKKESAVFDAVMVCSGHHVYPNLPKKSFPGLNHFKGKCFHSRDYKEPGVFNGKRVLVVGLGNSGCDIATELSRTAEQVMISSRSGSWVMSRVWDNGYPWDMLLVTRFGTFLKNNLPTAISDWLYVKQMNARFKHENYGLMPLNGVLRKEPVFNDELPASILCGIVSVKPNVKEFTGTSAIFEDGTIFEGIDCVIFATGYSFAYPFLDESIIKSRNNEIILFKGVFPPLLEKSTIAVIGFVQSLGAAIPTVDLQSRWAAQVIKGTCTLPSMEDMMNDINEKMEKKRKWFGKSETIQTDYIVYMDELSSFIGAKPNIPWLFLTDPKLAMEVYFGPCSPYQFRLVGPGQWPGARNAILTQWDRSLKPMQTRVVGRLQKPCFFFHWLKLFAIPILLIAVFLVLT
B4: DXS (Babesia bovis, UniProt V5KVW2); chain MVLMLPLVLKYARTSKFLLPMKKGFIATKTPRKCKSPDVQWIQLGVHNTSKVGIDLLDPEDRGECRLDVNSPEDVKRIPENQLNDLCKELRRCFMLNAEAVGGHYSSSLGVVELTVALHRVFDSPKDRIVWDIGHQGYIHKMLTGRLHKMQTMRQCGGLSGFLRRYESPHDLFGAGHSSTSIGALQGIYEGDVITGQSSNRSYVCVIGDGSLTGGMAMEALNYTCTIKSPLLIIYNDNEQSSLPTGMPAKNGTGPVVPYFMVEGSRKPAISGHDAIAQCEALRHKNDDMPLFIGPIDGHNIEALLGVLAYLKEELSASNEDGIKRPVVLHVKTIKGMGCEKALQSPSRLHSLKVATGPKIGTEATKTFSEIFTESLIDLAEKDQTVLAITAGMPGSTGVGKMGMKFPNRTFDVGIAEQHAVTFAAGTTISGAKPFCCIYSTFMQRALDQVIHDVSLQHLPVRFVLDRAGYVGGDGASHHGIYDIIYLRMMYNILIMAPSNGIELKMMMQIAYNTDKQPSAIRYPNGNVASHDELTRHLKYTPGEIEDPASMILPNGKLEARMVRRGKSGVAVLTFGPIVIDILKAVDAIYPDATVVDMRFLNPMDTDMPNYILQAHHTVFTAEDGVEGGFGSAVLEYFAKRPERADVICIAYPKEFMHHGSIAEQKRLAKMDVEGLAERMRQFLAS
B5: TcC (Trypanosoma cruzi, UniProt Q4DGA3); chain MPREYEFAEKILFTEEEIRTRIMEVAKRIADDYKGKGLRPYVNPLVLISVLKGSFMFTADLCRALSDFNVPVRMEFICVSSYGEGVTSSGQVRMLLDTRHSIEGHHVLIVEDIVDTALTLNYLYHMYFTRRPASLKTVVLLDKREGRRVPFSADYVVANIPNAFVIGYGLDYDDTYRELRDIVVLRPEVYAEREAARQKKQRAIGSADTDRDAKREFHSKY
B6: LYS1 C205S/K99M (Saccharomyces cerevisiae, UniProt P38998); chain MAAVTLHLRAETKPLEARAALTPTTVKKLIAKGFKIYVEDSPQSTFNINEYRQAGAIIVPAGSWKTAPRDRIIIGLKEMPETDTFPLVHEHIQFAHCYMDQAGWQNVLMRFIKGHGTLYDLEFLENDQGRRVAAFGFYAGFAGAALGVRDWAFKQTHSDDEDLPAVSPYPNEKALVKDVTKDYKEALATGARKPTVLIIGALGRSGSGAIDLLHKVGIPDANILKWDIKETSRGGPFDEIPQADIFINCIYLSKPIAPFTNMEKLNNPNRRLRTVVDVSADTTNPHNPIPIYTVATVFNKPTVLVPTTAGPKLSVISIDHLPSLLPREASEFFSHDLLPSLELLPQRKTAPVWVRAKKLFDRHCARVKRSSRL
B7: oxdC T165S (Bacillus subtilis, UniProt O34714); chain MKKQNDIPQPIRGDKGATVKIPRNIERDRQNPDMLVPPETDHGTVSNMKFSFSDTHNRLEKGGYAREVTVRELPISENLASVNMRLKPGAIRELHWHKEAEWAYMIYGSARVTIVDEKGRSFIDDVGEGDLWYFPSGLPHSIQALEEGAEFLLVFDDGSFSENSSFQLTDWLAHTPKEVIAANFGVTKEEISNLPGKEKYIFENQLPGSLKDDIVEGPNGEVPYPFTYRLLEQEPIESEGGKVYIADSTNFKVSKTIASALVTVEPGAMRELHWHPNTHEWQYYISGKARMTVFASDGHARTFNYQAGDVGYVPFAMGHYVENIGDEPLVFLEIFKDDHYADVSLNQWLAMLPETFVQAHLDLGKDFTDVLSKEKHPVVKKKCSK

For `pgmB (Lactococcus lactis, UniProt P71447)`, the Km was 0.63 µM (O=P(O)(O)OC[C@H]1O[C@@H](OP(=O)(O)O)[C@H](O)[C@@H](O)[C@@H]1O; pH 7, 25 °C).
`RALBP1 (Homo sapiens, UniProt Q15311)` gave a Km of 7.2 µM (CCN(CC)CCNC(=O)c1c(C)[nH]c(/C=C2\C(=O)Nc3ccc(F)cc32)c1C; pH 7.4, 37 °C).
`enzyme (Pseudomonas putida, UniProt Q88P31)` gave a Km of 127 µM (NC(=O)c1ccc[n+]([C@@H]2O[C@H](COP(=O)(O)OP(=O)(O)OC[C@H]3O[C@@H](n4cnc5c(N)ncnc54)[C@H](O)[C@@H]3O)[C@@H](O)[C@H]2O)c1; pH 8, 30 °C).
The Km of `B1 (enzyme)` is reported as 69 µM (NC(=O)C1=CN([C@@H]2O[C@H](COP(=O)(O)OP(=O)(O)OC[C@H]3O[C@@H](n4cnc5c(N)ncnc54)[C@H](O)[C@@H]3O)[C@@H](O)[C@H]2O)C=CC1; pH 7.5, 37 °C).
`B2 (enzyme)` has a Km of 236 µM (OC[C@H]1O[C@@H](n2cnc3c(O)ncnc32)[C@H](O)[C@@H]1O).
The Km of `rebH (Lentzea aerocolonigenes, UniProt Q8KHZ8)` is reported as 144 µM (c1ccc2c3c([nH]c2c1)CNCC3; added: glucose dehydrogenase regeneration).
The Km of `msrA (Clostridium oremlandii, UniProt A8MI53)` is reported as 10200 µM (CN(C)c1ccc(N=Nc2ccc(S(=O)(=O)N[C@@H](CC[S@+](C)[O-])C(=O)O)cc2)cc1; pH 7.5, 37 °C, 50 mM NaCl, Km above tested range, added: 20 mM DTT reductant).
The Km of `B3 (FMO3 E158K/E308G)` is reported as 2200 µM (CN1CCC[C@H]1c1cccnc1; HEK293 microsomes; 37 °C, not purified, added: NADPH regenerating system).
With `B4 (DXS)` the Km was 790 µM (CC(=O)C(=O)O; pH 7.5, 37 °C, added: MgCl2 10 mM, thiamin diphosphate 2 mM, D,L-GAP).
`B5 (TcC)` has a Km of 150 µM (O=c1[nH]c(=O)c2[nH]cnc2[nH]1; pH 8.3, 37 °C, apparent, added: PRPP 1 mM, MgCl2 12 mM).
The Km of `B6 (LYS1 C205S/K99M)` is reported as 8800 µM (O=C(O)CCC(=O)C(=O)O; pH 7.2, 25 °C, added: NADH and Lys).
With `B7 (oxdC T165S)` the Km was 9000 µM (O=C(O)C(=O)O; pH 4.2, 25 °C).

For quick reference, copied from above:
`B2 (enzyme)` has a Km of 236 µM (OC[C@H]1O[C@@H](n2cnc3c(O)ncnc32)[C@H](O)[C@@H]1O).
`RALBP1 (Homo sapiens, UniProt Q15311)` gave a Km of 7.2 µM (CCN(CC)CCNC(=O)c1c(C)[nH]c(/C=C2\C(=O)Nc3ccc(F)cc32)c1C; pH 7.4, 37 °C).
